# Measured values collected from several papers.
# Numbered parts are unrelated; each lists some results of a single study. Substitutions count along the parent as printed.

# Set 1
# Target: CCND3, cyclin fold, Cln2 fusion (human)
# Technique: yeast growth competition, sequencing
# Medium: yeast
# Setting: weak parent motif
# Baseline: not given
# Direction: higher = stronger binding
# Starting sequence: CDKN1B docking peptide (human); PSACRNLFGPVDH; partner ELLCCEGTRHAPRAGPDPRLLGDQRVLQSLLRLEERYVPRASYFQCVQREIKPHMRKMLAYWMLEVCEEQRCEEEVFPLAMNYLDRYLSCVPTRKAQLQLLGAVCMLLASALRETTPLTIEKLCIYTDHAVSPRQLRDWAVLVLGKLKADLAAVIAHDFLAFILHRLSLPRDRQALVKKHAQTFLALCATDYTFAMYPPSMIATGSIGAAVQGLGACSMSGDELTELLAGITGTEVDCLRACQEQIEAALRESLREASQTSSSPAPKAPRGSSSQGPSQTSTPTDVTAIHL
Substitution,normalised enrichment score
G9E,0.127
P10Q,0.15
S2C,0.0911
L7S,0.113
V11L,0.196
N6Y,0.0949
F8S,0.167
P1Q,0.207
P10L,0.176
G9A,0.139
P1V,0.0927

# Set 2
# Target: Histone acetyltransferase KAT6A, winged helix 1, GST fusion (KAT6A, Homo sapiens, UniProt Q92794, residues 1-85)
# Technique: protein binding microarray
# Molecule type: double-stranded DNA, one strand shown
# Medium: in vitro
# Tested at: not given
# Setting: 8-mer, flanks averaged, mean of 2 arrays, mostly near background
# Baseline: not given
# Direction: higher = stronger binding
# Target sequence (chain): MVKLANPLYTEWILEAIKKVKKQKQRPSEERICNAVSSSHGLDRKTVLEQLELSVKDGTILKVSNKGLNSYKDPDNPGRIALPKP
Sequence,E-score
GCATGATA,-0.224
AAGTTAGG,-0.129
CGGCGACA,0.318
ACGGACGT,0.171
GTGACCAC,0.00728
AGAAACCT,-0.126
CACTGACG,0.0536
GTTGACGA,-0.155
ACACATCG,-0.232
CCATCCGG,-0.0109
AGAGGTGG,-0.199
TATTCGCA,-0.0192
GTTACGTA,0.0234
GACAACCC,-0.0658
CCAAGCGG,0.187
CGGATACC,0.175
AGCGATGG,0.0766
AGGGGACG,-0.0902

# Set 3
# Target: Protein C-ets-1 (ETS1, Homo sapiens, UniProt P14921, residues 1-441, full length assumed)
# Technique: protein-binding microarray
# Molecule type: double-stranded DNA, one strand shown
# Medium: in vitro
# Tested at: not given
# Setting: k-mer, scored over probes, only values ≥0.25
# Direction: higher = stronger binding
# Residues (chain): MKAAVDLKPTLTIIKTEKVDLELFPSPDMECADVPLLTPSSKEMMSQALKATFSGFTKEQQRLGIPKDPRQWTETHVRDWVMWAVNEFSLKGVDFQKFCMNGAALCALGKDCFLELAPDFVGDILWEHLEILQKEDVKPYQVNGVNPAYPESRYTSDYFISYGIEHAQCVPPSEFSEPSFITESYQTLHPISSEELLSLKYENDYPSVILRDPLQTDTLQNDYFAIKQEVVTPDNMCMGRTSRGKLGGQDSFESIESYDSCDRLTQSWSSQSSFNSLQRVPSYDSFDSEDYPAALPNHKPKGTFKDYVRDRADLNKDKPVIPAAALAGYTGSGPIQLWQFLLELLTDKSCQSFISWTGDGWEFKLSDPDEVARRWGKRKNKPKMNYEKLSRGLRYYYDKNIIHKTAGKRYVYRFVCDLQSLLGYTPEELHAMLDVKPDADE
Sequence,E-score
TCCGGAGA,0.371
ACTTCCTC,0.455
GACTTTCC,0.251
ATAGGAAG,0.368
GATGTTGA,0.279
ACGCGGAA,0.368
TTCGGAAA,0.259
CACGCCGG,0.254
CATTTCCA,0.284
GACCCGGA,0.324
CAGGATGA,0.395
CTCCATCC,0.291
CGGATACA,0.434
GCCCGGAC,0.341
CCGGTACC,0.392
ACTCTTCC,0.328

# Set 4
# Molecule: PhoQ, residues 284 288 289 292 302 303 WVSSAF
# Technique: Sort-seq
# Item: YFP reporter
# Medium: E. coli
# Setting: PhoQ-PhoP variant library
# With: 10 µM Mg2+
# Baseline: high Mg2+ state
# Direction: higher = stronger signaling
target,fold induction
"PhoP, residues 12 14 15 18 19 VHTVL (Escherichia coli, UniProt P23836)",10.5
"PhoP, residues 12 14 15 18 19 ICWRQ (Escherichia coli, UniProt P23836)",2.21
"PhoP, residues 12 14 15 18 19 TQCLL (Escherichia coli, UniProt P23836)",1.33

# For quick reference, copied from above (set 2):
Sequence,E-score
CCATCCGG,-0.0109
AGAGGTGG,-0.199
CACTGACG,0.0536
AGCGATGG,0.0766
